Published values from different studies.
Every numbered part comes from another study and shows a few of its results, in no order. Positions count from the first letter of the parent shown.

Block 1
Target: CREB3L1, bZIP domain (human)
Method: DHFR protein complementation
Sample: yeast
Setting: single substitutions, most at no-binding floor
Reference: wild-type JUN-FOS pair
Direction: higher = stronger binding
Starting sequence: JUN, bZIP domain (human); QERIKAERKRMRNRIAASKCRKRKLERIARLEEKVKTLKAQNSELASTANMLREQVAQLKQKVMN; partner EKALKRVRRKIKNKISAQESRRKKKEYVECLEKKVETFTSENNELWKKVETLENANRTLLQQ
For `M51Y`, the binding fitness was -1.41 natural log.
With `S47M` the binding fitness was -1.18 natural log.
For `Q41R`, the binding fitness was -1.44 natural log.
`E44S` gave a binding fitness of -1.51 natural log.
With `Q41L` the binding fitness was -1.49 natural log.
The binding fitness of `K39D` is reported as -1.53 natural log.
`A29H` gave a binding fitness of -1.5 natural log.
With `R30Y` the binding fitness was -1.38 natural log.
The binding fitness of `K39N` is reported as -1.48 natural log.

Block 2
Target: RNA binding protein fox-1 homolog 2, RRM domain, GST-SBP tag (RBFOX2, Homo sapiens, UniProt O43251-10, residues 100-194)
Method: RNA Bind-n-Seq
Form: RNA
Sample: in vitro
Concentration: 365 nM
Setting: natural RNA segment, single round, ends assumed
Reference: no-protein control
Direction: higher = stronger binding
Shared flanks, not repeated: GGGAGUUCUACAGUCCGACGAUC … UGGAAUUCUCGGGUGCCAA
Construct (chain): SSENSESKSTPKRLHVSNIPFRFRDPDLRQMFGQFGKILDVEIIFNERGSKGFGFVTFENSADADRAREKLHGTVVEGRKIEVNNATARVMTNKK
`GCCCUGCCAUCAGCUUUUGGGGCCUCAGCAAGGCCUCUCUUUCUCCCCGUUGGUGAUGAAAGGCCUGAAUAUCUCCCAUCCCAGCUGGCCCCACCUCAGCCCCAGCCCUC`: “RBNS enrichment (R)” 0.347.
Under “RBNS enrichment (R)”, `CAGUGUUACUUGCAGGUACUUUGGUUAAUGUUGAUUUAAAUUUUCAUGAAUGUGCUGGUGAACACUGUGACCAGGCUUUUGUAGAUGGCGAUGUGUUAUAGACGGUGCUC` is recorded as 2.23.
For `AUUCUUAGUUGUUCAGUUGCCAAGGAUCCCUGAUCCCAUUUUCCUCUGACGUCCACCUCCUACCCCAUAGGAGUUAGAAGUUAGGGUUUAGGCAUCAUUUUGAGAAUGCU`, “RBNS enrichment (R)” read 0.244.
`AGUUUAAGUGUUUGAACAACUAUAUGCACUUACGGUUGUGUGUUUAAAAUGUCUCUCUCACCCCCUAGCUUCAUGAUGUGACUCUUAAAAAACUAUAAUAGUUAACAACU` — result for “RBNS enrichment (R)”: 0.374.
`ACAACUUUCUUUUGUAAAUUUUUCUUUCAUGCCAAAAAACAUGCGGGCAAUUUGUUGAUGAGGUGAAUUAGUUAUCCCUCUUCUUGUAGAAGACCCUUUAGCUACCCCUC` — result for “RBNS enrichment (R)”: 0.407.
`GUAACCAAUGUCAUCUUGCUAAAUUCAUGUUUUGUACAAUUACUAAAUUGUAUACAUUUUGUUAUAGAAUACUUUUUCCAGUUGAGUAAAUUAUGAAAGGAAGUUAACAU` — result for “RBNS enrichment (R)”: 0.643.
For `ACAAAAUGGAGAGCAUACUUACAGACUCCUGUGCGAUAGCUACUUUUAAAUACAUUUCAAUAAUUUUAACAAAUUUGCAUUUUUAUUGAGUUGCUGACUGAAUCUAUCUU`, “RBNS enrichment (R)” read 0.79.
`CAAUCUAUGGGACUAGGGGGAUUGGCAUCAAGUUGACACCCUUGAACCUGCUAUGGCCUUCAGCAGUCACCAUCAUCCAGACCCCCCGGGCCUCAGUUUCCUCAAUCAUA`: “RBNS enrichment (R)” 0.461.

Block 3
Target: Interferon regulatory factor 3, full length, phosphomimetic (IRF3, Homo sapiens, UniProt Q14653, residues 1-427, S386D/S396D/S398D/S402D/T404D/S405D)
Method: protein-binding microarray
Form: double-stranded DNA, one strand shown
Sample: in vitro
Concentration: 2540 nM top
Setting: 60-bp whole probe
With: salmon DNA 0.4 mg/ml
Reference: random background probes
Direction: higher = stronger binding
Shared flanks, not repeated: GCCTAGCAC … GTCTTGATTCGCTTGACGCTGCTG
Construct (chain): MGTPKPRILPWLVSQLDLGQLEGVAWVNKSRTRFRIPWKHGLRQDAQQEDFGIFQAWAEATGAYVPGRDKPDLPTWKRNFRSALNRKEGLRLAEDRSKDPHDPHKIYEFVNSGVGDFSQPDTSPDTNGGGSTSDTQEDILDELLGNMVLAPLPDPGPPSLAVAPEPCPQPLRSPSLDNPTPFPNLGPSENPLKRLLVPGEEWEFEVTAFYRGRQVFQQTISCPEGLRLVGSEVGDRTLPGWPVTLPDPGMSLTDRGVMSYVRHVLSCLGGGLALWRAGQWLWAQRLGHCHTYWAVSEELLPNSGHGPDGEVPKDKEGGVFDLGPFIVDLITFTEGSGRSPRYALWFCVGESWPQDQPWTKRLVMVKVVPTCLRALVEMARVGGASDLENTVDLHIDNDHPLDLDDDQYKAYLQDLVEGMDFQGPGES
`TGTCTGTCTGTCACCCGGACGTGCTAG` — result for “fitted relative affinity”: 0.158 z-score.
`GACGATTTCATTCTCGAGACGTGCTAG` — result for “fitted relative affinity”: 3.38 z-score.
`GACGGGTTCGGGACTGGGGACGTGCTA`: “fitted relative affinity” -0.257 z-score.
`GACGGTAACGGGTTTCGGGACGTGCTA`: “fitted relative affinity” 1.23 z-score.
`TCAACTCTCTGCTTGTAACTGTGCTAG`: “fitted relative affinity” 0.17 z-score.
Under “fitted relative affinity”, `CTTTCTCTCTGTGACACAGAGTGCTAG` is recorded as 5.97 z-score.
Under “fitted relative affinity”, `GACGGTTTTGGGACTGGGGACGTGCTA` is recorded as 1.2 z-score.
For `GACGGCTTCCTTCTCCTGACGTGCTAG`, “fitted relative affinity” read 1.39 z-score.
For `TTAGATATCGGGTCTGGATTAGTGCTA`, “fitted relative affinity” read 0.239 z-score.
For `TCTACTTCTGTTTTTGCTTTGTGCTAG`, “fitted relative affinity” read 0.898 z-score.
`GACGGTATCGGGACAGGGGACGTGCTA` — result for “fitted relative affinity”: 1.5 z-score.
For `GATGGTATCGGGACTGGGGACGTGCTA`, “fitted relative affinity” read 1.25 z-score.
`TTAGATCTCAGTTTCGATCAGTGCTAG`: “fitted relative affinity” 2.72 z-score.
Under “fitted relative affinity”, `TTAGGACTGGGGTACCGGTTAGTGCTA` is recorded as -0.416 z-score.
Under “fitted relative affinity”, `TTAGGTTACGACACTGGGTTAGTGCTA` is recorded as -0.255 z-score.
`GACGTTTTCGGTTTCGGGACGTGCTAG` — result for “fitted relative affinity”: 7.35 z-score.

Block 4
Target: CCNB2, cyclin fold, Cln2 fusion (human)
Method: yeast growth competition, sequencing
Sample: yeast
Setting: weak parent motif
Reference: not given
Direction: higher = stronger binding
Starting sequence: EXO1 docking peptide (human); KPECGRVQRAIFQ
For `Q13A`, “normalised enrichment score” read 0.126.
`I11A`: “normalised enrichment score” 0.18.
`Q8A`: “normalised enrichment score” 0.567.
For `G5A`, “normalised enrichment score” read -0.00691.
`F12A`: “normalised enrichment score” 0.149.
Under “normalised enrichment score”, `E3A` is recorded as 0.192.

Single results of other studies
`PhoQ, residues 284 288 289 292 302 303 SLANIV` has a fold induction of 7.5 (PhoP, residues 12 14 15 18 19 AGCRL (Escherichia coli, UniProt P23836); Sort-seq, item: YFP reporter; E. coli; PhoQ-PhoP variant library, with: 10 µM Mg2+; reference: high Mg2+ state, higher = stronger signaling).

A few entries again (block 2):
Under “RBNS enrichment (R)”, `CAGUGUUACUUGCAGGUACUUUGGUUAAUGUUGAUUUAAAUUUUCAUGAAUGUGCUGGUGAACACUGUGACCAGGCUUUUGUAGAUGGCGAUGUGUUAUAGACGGUGCUC` is recorded as 2.23.
For `AUUCUUAGUUGUUCAGUUGCCAAGGAUCCCUGAUCCCAUUUUCCUCUGACGUCCACCUCCUACCCCAUAGGAGUUAGAAGUUAGGGUUUAGGCAUCAUUUUGAGAAUGCU`, “RBNS enrichment (R)” read 0.244.
`AGUUUAAGUGUUUGAACAACUAUAUGCACUUACGGUUGUGUGUUUAAAAUGUCUCUCUCACCCCCUAGCUUCAUGAUGUGACUCUUAAAAAACUAUAAUAGUUAACAACU` — result for “RBNS enrichment (R)”: 0.374.
`ACAACUUUCUUUUGUAAAUUUUUCUUUCAUGCCAAAAAACAUGCGGGCAAUUUGUUGAUGAGGUGAAUUAGUUAUCCCUCUUCUUGUAGAAGACCCUUUAGCUACCCCUC` — result for “RBNS enrichment (R)”: 0.407.
`GUAACCAAUGUCAUCUUGCUAAAUUCAUGUUUUGUACAAUUACUAAAUUGUAUACAUUUUGUUAUAGAAUACUUUUUCCAGUUGAGUAAAUUAUGAAAGGAAGUUAACAU` — result for “RBNS enrichment (R)”: 0.643.
For `ACAAAAUGGAGAGCAUACUUACAGACUCCUGUGCGAUAGCUACUUUUAAAUACAUUUCAAUAAUUUUAACAAAUUUGCAUUUUUAUUGAGUUGCUGACUGAAUCUAUCUU`, “RBNS enrichment (R)” read 0.79.
